# Results of several laboratories.
# Each numbered part is a random draw from the data of one study; scales do not carry over between parts.
# Sequence of UniProt O00238 (whole entry, looked up): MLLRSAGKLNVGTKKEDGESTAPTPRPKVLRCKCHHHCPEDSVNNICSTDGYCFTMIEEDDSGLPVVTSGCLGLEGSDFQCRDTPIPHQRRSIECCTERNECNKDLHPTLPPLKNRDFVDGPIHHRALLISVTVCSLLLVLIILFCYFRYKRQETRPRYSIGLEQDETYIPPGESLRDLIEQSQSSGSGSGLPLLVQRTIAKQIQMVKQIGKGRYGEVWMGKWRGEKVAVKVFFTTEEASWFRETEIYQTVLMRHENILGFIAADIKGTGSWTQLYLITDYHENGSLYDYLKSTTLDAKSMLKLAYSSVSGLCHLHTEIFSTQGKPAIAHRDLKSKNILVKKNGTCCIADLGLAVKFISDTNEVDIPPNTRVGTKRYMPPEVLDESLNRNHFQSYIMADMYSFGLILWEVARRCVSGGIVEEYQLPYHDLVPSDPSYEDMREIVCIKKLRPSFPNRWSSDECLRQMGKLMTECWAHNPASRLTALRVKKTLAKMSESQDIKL
# Sequence of UniProt Q9BRS2 (whole entry, looked up): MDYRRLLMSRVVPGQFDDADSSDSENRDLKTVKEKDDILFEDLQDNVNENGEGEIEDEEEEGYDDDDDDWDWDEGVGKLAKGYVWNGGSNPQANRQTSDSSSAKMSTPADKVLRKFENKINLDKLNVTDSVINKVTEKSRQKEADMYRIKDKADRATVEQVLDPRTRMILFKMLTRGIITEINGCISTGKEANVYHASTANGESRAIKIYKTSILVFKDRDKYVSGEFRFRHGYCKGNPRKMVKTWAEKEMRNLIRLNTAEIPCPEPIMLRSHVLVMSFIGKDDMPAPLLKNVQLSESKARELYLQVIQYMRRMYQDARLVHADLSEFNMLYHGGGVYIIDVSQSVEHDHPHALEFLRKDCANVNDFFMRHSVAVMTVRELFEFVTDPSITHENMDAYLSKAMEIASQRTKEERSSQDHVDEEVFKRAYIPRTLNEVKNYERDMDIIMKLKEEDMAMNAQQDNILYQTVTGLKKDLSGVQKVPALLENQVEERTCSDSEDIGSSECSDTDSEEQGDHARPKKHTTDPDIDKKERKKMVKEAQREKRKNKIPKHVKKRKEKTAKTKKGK
# Sequence of UniProt P51812 (whole entry, looked up): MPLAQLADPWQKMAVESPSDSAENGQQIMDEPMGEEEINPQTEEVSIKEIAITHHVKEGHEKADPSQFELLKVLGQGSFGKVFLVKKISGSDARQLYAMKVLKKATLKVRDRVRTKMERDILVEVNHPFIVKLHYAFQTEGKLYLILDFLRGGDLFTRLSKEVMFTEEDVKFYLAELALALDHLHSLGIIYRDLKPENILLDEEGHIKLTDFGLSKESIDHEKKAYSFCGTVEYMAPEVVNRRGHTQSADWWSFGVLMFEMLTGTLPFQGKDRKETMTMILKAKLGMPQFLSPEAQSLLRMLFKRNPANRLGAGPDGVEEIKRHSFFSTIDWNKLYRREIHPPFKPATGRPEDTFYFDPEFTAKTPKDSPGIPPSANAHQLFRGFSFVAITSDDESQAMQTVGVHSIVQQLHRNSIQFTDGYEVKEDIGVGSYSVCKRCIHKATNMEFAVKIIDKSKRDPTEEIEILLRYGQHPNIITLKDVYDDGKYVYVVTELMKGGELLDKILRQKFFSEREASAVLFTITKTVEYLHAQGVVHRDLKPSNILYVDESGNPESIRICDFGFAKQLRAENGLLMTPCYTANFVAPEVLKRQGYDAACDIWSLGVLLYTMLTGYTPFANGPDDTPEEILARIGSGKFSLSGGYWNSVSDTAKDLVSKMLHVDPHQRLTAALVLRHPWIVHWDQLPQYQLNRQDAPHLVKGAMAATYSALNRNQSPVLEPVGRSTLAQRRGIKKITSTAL
# Sequence of UniProt P31152 (whole entry, looked up): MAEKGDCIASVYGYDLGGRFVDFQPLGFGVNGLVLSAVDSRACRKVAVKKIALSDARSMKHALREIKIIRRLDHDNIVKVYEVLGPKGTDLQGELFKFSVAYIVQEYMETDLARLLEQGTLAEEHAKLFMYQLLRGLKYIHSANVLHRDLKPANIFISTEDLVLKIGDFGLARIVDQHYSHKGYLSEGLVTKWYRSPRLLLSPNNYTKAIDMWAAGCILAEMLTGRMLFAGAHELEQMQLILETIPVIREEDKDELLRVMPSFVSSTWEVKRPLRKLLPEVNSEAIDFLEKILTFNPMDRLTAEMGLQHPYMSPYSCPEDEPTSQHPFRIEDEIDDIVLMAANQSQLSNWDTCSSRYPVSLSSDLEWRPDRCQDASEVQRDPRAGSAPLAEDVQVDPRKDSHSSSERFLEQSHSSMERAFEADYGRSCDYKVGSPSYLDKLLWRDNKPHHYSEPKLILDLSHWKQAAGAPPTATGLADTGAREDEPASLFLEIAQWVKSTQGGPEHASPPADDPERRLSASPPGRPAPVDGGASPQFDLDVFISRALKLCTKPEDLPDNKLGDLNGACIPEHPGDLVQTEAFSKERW
# Sequence of UniProt P33981 (whole entry, looked up): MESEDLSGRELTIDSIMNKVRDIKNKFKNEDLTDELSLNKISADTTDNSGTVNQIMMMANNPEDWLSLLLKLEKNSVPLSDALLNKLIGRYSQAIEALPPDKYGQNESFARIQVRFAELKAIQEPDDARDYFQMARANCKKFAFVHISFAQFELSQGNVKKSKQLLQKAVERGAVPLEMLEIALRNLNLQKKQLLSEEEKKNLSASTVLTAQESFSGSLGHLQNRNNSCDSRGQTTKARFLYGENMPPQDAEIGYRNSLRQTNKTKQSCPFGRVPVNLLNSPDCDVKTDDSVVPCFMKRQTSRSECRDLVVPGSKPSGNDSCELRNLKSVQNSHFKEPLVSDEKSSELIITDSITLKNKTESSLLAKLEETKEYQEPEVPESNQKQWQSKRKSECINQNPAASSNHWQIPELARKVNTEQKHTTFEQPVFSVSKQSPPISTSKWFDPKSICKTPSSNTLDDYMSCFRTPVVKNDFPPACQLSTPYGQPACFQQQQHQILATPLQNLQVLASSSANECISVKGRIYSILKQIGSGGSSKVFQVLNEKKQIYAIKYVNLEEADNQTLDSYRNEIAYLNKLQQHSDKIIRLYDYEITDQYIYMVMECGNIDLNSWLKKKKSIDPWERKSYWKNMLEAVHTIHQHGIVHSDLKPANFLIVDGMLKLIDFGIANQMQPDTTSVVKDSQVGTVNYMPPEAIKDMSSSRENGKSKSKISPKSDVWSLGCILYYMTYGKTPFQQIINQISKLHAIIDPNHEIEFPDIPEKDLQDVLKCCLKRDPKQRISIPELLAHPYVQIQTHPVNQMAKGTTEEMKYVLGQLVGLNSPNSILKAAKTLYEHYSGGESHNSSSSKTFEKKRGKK
# Sequence of UniProt P53667 (whole entry, looked up): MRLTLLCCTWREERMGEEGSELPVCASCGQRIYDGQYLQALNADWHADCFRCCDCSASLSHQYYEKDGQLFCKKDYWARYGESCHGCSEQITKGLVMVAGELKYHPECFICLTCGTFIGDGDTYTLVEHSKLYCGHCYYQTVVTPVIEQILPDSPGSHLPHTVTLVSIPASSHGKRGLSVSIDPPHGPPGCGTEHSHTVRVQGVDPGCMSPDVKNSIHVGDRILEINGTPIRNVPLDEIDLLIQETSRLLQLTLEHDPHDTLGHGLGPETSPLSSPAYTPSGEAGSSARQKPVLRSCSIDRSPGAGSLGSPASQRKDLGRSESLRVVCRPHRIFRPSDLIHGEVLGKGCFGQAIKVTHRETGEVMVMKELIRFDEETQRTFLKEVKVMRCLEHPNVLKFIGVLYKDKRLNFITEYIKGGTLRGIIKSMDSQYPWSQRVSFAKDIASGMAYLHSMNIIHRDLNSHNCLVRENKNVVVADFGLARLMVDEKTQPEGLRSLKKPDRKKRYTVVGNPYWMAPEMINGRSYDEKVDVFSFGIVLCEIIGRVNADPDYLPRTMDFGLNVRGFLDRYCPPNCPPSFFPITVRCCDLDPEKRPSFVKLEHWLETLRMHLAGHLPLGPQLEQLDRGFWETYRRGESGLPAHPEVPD
# Sequence of UniProt P11362 (whole entry, looked up): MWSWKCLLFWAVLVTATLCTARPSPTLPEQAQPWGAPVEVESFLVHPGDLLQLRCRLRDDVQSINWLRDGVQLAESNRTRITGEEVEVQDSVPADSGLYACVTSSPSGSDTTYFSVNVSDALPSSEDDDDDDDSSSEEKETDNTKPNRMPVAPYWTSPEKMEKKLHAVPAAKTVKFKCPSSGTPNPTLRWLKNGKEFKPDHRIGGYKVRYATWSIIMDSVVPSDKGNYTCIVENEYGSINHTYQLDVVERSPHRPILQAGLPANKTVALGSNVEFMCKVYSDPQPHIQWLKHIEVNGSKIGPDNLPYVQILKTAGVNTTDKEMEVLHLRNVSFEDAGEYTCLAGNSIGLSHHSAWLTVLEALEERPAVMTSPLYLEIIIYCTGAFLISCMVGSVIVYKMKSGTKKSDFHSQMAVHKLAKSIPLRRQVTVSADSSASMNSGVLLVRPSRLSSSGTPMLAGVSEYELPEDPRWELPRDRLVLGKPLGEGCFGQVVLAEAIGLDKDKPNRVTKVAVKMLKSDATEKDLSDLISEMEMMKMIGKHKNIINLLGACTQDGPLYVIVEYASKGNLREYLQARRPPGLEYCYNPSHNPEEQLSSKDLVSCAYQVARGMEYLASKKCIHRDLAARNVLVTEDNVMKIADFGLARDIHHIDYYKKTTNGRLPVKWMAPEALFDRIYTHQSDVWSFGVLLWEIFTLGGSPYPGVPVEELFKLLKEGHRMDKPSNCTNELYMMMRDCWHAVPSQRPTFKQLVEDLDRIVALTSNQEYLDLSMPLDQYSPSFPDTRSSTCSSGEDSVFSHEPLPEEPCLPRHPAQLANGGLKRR

# Set 1 — observed: enzyme activity; action: inhibitor; tested at: 0.5 µM; reference: control
# Target: Aurora kinase A (AURKA, Homo sapiens, UniProt O14965)
# Residues (O14965 1-403): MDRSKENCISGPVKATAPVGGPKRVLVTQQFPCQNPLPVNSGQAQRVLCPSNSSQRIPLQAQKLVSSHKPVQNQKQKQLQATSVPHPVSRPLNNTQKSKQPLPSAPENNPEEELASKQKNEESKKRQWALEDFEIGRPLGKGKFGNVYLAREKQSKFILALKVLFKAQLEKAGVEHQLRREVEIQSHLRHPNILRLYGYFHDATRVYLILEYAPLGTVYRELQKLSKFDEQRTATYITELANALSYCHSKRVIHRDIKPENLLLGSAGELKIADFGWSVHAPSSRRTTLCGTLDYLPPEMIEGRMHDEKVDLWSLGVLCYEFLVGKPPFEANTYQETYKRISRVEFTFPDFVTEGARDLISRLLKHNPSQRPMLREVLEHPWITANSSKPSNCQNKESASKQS
Structure (SMILES),remaining activity
CN([C@@H](Cc1ccc(OS(=O)(=O)c2cccc3cnccc23)cc1)C(=O)N1CCN(c2ccccc2)CC1)S(=O)(=O)c1cccc2cnccc12,86.2%
CCOc1nc(NC(=O)Cc2cc(OC)ccc2OC)cc(N)c1C#N,104%
c1ccc(-c2[nH]ncc2-c2ccnc3ccccc23)nc1,95.4%
c1ccc(-c2cnc(Nc3ccc(OCCN4CCCC4)cc3)s2)cc1,95.3%

# Set 2 — method: protein binding microarray; molecule type: double-stranded DNA, one strand shown; medium: in vitro; tested at: not given; reference: not given; reading: higher = stronger binding
# Target: Histone acetyltransferase KAT6A, both winged helices, GST fusion (KAT6A, Homo sapiens, UniProt Q92794, residues 1-181)
# Setting: 8-mer, flanks averaged, mean of 2 arrays, mostly near background
# Residues (chain): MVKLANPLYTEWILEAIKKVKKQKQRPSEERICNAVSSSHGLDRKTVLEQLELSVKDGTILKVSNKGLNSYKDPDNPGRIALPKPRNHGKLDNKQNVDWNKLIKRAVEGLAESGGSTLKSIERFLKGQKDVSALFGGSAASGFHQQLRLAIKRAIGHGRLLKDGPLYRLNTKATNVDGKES
Strand,E-score
GAAGCCGA,0.068
AGCAGAAA,-0.0982
AAACACAG,-0.102
CTCACTGC,-0.11
AACCTCAA,-0.0815
CGTCCAAA,0.0728
AGGGGGGA,-0.321
AACCCTGT,-0.0969

# Set 3 — observed: cell-free assay; method: competition with immobilised ligand; tested at: 0.1 µM
# SMILES: O=C(NCCCC1CCCCC1)c1ccc(CNC(=O)c2cnn(-c3ccccc3)c2C(F)(F)F)cc1
target,remaining binding [%]
"Platelet-derived growth factor receptor alpha (PDGFRA, Homo sapiens, UniProt P16234)",92
"LIM domain kinase 1 (LIMK1, Homo sapiens, UniProt P53667)",100
"Serine/threonine-protein kinase/endoribonuclease IRE1 (ERN1, Homo sapiens, UniProt O75460)",94
"Epidermal growth factor receptor (EGFR, Homo sapiens, UniProt P00533, G719C)",96
"Ephrin type-A receptor 7 (EPHA7, Homo sapiens, UniProt Q15375)",86
"Bone morphogenetic protein receptor type-1B (BMPR1B, Homo sapiens, UniProt O00238)",92
"Ribosomal protein S6 kinase alpha-3, C-terminal kinase domain (RPS6KA3, Homo sapiens, UniProt P51812)",100
"Dual specificity protein kinase TTK (TTK, Homo sapiens, UniProt P33981)",91
"Mitogen-activated protein kinase 4 (MAPK4, Homo sapiens, UniProt P31152)",100
"Fibroblast growth factor receptor 1 (FGFR1, Homo sapiens, UniProt P11362)",100
"Serine/threonine-protein kinase 32C (STK32C, Homo sapiens, UniProt Q86UX6)",100
"Serine/threonine-protein kinase RIO1 (RIOK1, Homo sapiens, UniProt Q9BRS2)",100
"Leucine-rich repeat serine/threonine-protein kinase 2 (LRRK2, Homo sapiens, UniProt Q5S007)",57

# Set 4 — method: RNA Bind-n-Seq; molecule type: RNA; medium: in vitro; tested at: 100 nM; reference: input RNA pool; reading: higher = stronger binding
# Target: RING finger protein unkempt homolog, zinc fingers 1-6, SBP tag (UNK, Homo sapiens, UniProt Q9C0B0, residues 30-357)
# Sequence of UniProt Q9C0B0 (30-357, looked up): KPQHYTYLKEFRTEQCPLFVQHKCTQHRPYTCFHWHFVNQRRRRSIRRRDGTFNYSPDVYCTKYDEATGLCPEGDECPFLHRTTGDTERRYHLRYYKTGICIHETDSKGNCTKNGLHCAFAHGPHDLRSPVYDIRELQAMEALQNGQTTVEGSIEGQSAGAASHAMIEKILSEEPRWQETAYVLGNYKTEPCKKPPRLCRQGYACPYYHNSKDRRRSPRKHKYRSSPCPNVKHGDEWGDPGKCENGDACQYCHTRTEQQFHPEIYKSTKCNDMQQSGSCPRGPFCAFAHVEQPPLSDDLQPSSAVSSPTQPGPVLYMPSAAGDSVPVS
# Setting: RNA with constant flanks, vertebrate orthologous sites, ends assumed
# Shared flanks, not repeated: GGGAGUUCUACAGUCCGACGAUC … CAACAGAGGAUUGAGCAUCA
Strand,bound/input enrichment
CAUGCACAUGACUCUAUCACCAAAAGCAAACACCUUUUUCAAAUUCAUUAAUAGCAUUGUUAGUAUUCCUUCCUUUCCUUCUGUUCCCCUAAUGCUUUAAACUAUUAGAAGUCCUGGUUC,2.8 ratio
CUCCCCGUCACUGUGAUGUUUAAAAUAUGCACAGUCCUAAUUUUGUUUCCUAAAUGAUUCUAGUAAUUUCCUAGCAAUAGCUCUAUCUUACCUGUUAUUUAUCAAUUUCCCCCCCAGGGU,2.44 ratio
GUGGGGAUGAGGGUGGGAUGGGAAAGGGAUGAAUGGAUGUUAUUGGCAUUUUUAAGUGUUUAGAGUUUUUUGGGGGUUUGGGUUUUUUGUUUUGUUUUGUUUUUCCUUGUAUUCUUUUUU,2.09 ratio
CCCCAGCACACUGAUAAAGACCGUGGAUUGGCUGCUCGUAUUUUCCUUAUUCUUUUUAAUUAGUUUUAUUAUGUAUGCUACCAUCCGGACUGAGAGCAUUCGGUGGCUGAUUCCAGGACA,2.01 ratio
CCCCGAUUUUAGAUGUGAUAUCUAGGCUUUCAUUCCAGUUUGUUUUUGUCUUUUCUUGUUUAGAUAGCAAUCUUUUAAAUUCUUGCAUUUUAGUAAGAAAGCUACCUUUUUAUGGAUGUU,0.73 ratio
AAAUGAGCUGCUAGGGCAGUAAGAUGGGUUCCCUUUCAUCCCUCAAGGAAAAAAUCUGAAUGGAUUCCUUAACCAUCUAAGUAGGUUAGCUUUCCUGGGUAUUUUUGUUUUGUUUAGAUU,0.537 ratio
CAUUUUUUAAUUUUCAUUUUAUUUUAUACAAUGUGUAGACAGUUCCCUGUUCUCUGCAUUUAGAAGUAUAAACAAUAUAAAUCUGUUAAUUCUGUAAGUAAUUUUUAUAAUUAUGAUGUA,0.424 ratio
CACGUCUGGUGAUAUUUGGCCUGGCCUCUCAGCUUAUGAUAAUAGUCCCAGAUCACCCCAUAGUCCCUCACCAAUCGCCACGCCACCUAGUCAGAGUUCAUCGUGCUCUGAUGCCCCCAU,0.979 ratio
